Results from different studies.
Every numbered part comes from another study and shows a few of its results, in no order. Changes are numbered by the printed parent chain.

Sample 1
Target: ABI1, truncated, D143A, DHFR fusion (Arabidopsis thaliana)
Method: DHFR PCA, deep sequencing
Medium: yeast
Notes: methotrexate growth selection, single substitutions
Added: (+)-ABA 200 µM
Relative to: wild-type fitted maximum
Reading: higher = stronger binding
Quantity: relative binding score
Starting sequence: PYL1, truncated, DHFR fusion (Arabidopsis thaliana); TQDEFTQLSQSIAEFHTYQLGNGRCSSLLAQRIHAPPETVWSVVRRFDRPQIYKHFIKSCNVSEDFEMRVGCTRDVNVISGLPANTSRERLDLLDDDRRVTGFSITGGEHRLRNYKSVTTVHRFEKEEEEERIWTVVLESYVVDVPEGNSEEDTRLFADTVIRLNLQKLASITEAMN
G148T: 83.2%
F124L: 111%
Q7S: 100%
F157S: -0.19%
S27W: 38.8%
Q10E: 99.9%
S80F: 66.7%
G23H: 95.1%
T173I: 90.6%
E130D: 110%
D75F: 103%
T160V: 75.5%
T154E: 3.95%
P83S: 72.6%
V143A: 76%
F47W: 83%

Sample 2
Target: RNA binding protein fox-1 homolog 2, RRM domain, GST-SBP tag (RBFOX2, Homo sapiens, UniProt O43251-10, residues 100-194)
Method: RNA Bind-n-Seq
Molecule type: RNA
Medium: in vitro
Concentration: 365 nM
Notes: natural RNA segment, single round, ends assumed
Relative to: no-protein control
Reading: higher = stronger binding
Quantity: RBNS enrichment (R)
Constant ends, left off below: GGGAGUUCUACAGUCCGACGAUC … UGGAAUUCUCGGGUGCCAA
Residues (chain): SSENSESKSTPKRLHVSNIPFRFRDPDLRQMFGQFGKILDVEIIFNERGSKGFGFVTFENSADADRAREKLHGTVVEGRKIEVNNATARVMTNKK
GUGGCUGUACUUCAGAUCAUCAAAGCAAGAGAAAGAAUGUGCUGAGUGUUUUCUUCCCUGUGCCUUAAGGGCCCUCAUCCCAGCAGCCCAUAUAGCCAGCAAAUGGAGGA: 0.814
CUGAGGAAGCUGUGGUAACCAUUUCCCCACUCAUUCUGAGAGCCUUCUGUAAGCACUGACCUGGGUAAGGCAGAGGGUAGGAGUCACCAUCCCUCCUCUGCCAAUAUCGC: 0.283
UCCUUGCUAAAAAGGGUUCCAUCUCCUUUAAGGACGUUUUAUUUUUGAUCCAGAGUCCUUGUUUCCUUGACUUGCUCCACCAGCCCUGCACCAGCUUUCCAAAUGCACUC: 3.12
CCUCUGAGGCAGUGGACAGGAAGACUUCUCAUCCUUGAAUUCUAGCUCCCAUUCCAAACUGUUAGUCCCCAACCUUGUGGUCACAUCAGAGGUCAACAGCAGAACAGAGG: 0.178
GUUGGCCUUGAAGCAGAGGGCACAGCCCUUGGUGUUUGUAAAAUAAGUAUGAAUACACAGUGUGGCAGUGUUGUGGUUUUUGUUGUUGUUUUUCCUCUCCUUUUGAGAAU: 0.845
UCCCACCUCCCUCGCUCGCUAGUCUCGGCCGGACUUGGAAGACACUGAGAAUGUCCCCCCCAAUGGCCUCCGCCAUCCAGAACUUGGUACAUAUUCUGGUGGCUCCCUGC: 0.931
CAUUGAAGUGUUUGCUGCAGAGUUGAGGGAAACCCCCAGCCACCCUCCCGGAAUCCGAGAUAGGGUGGCACAUCUGUCCUGACAGACGAGGAGUGUAACUGAACCAGGAA: 0.234
AACUAGCGAAAACCACCAGUCCAGACCUUAUCCAUUCUACUCAUUCACAGUUUUAAAAACUGCCAUGCAGUGAUUUCGGCACUCUGGGGCCAGACAGCAGCUCCCUGUCA: 0.651
UUGGAUAAUUGAUGUUUAGCCAAGGCUGGCCUCAAAAUACUAGUAAUCUUUCUGUAAGCCUCUCAAGUACUGGGAUUACAGGCAUGAACCACCAUGCCUAUAGCCACAGC: 0.184
AACUCUUGAACUGAUGUCAGCACCCAAAUGGCUCCUGAAUUUAAGUCUGGGAGGACAUCUUUUUAUUUUUACAUGAAUCUUUAAACAAUUCUGUGAGCAGAGUUUCUAGC: 0.331
AAAGCACCGCCUAUUUUGUAUAAAGUUUCUGAUUCCGUCUUGGCUGUCUAGUGCGUGCUAUCUGUGUGGGGAGAAGCUUCGUGAAUAUGCACCGUUUUGAUGCCCAUGCA: 0.88
AGCACAGAUUCCACAUUUUUAUACAUGAGGAUCUUCUUUGUGGUGAAUACCAGGAUUGACUGCAUCCCUUUAAAGAAGUUUUAUGUCCCUGACUCUGGCUAAAAUUAUCU: 0.688

Sample 3
Target: RING finger protein unkempt homolog, zinc fingers 1-6, GST-SBP tag (UNK, Homo sapiens, UniProt Q9C0B0, residues 30-357)
UniProt Q9C0B0, sequence (30-357, looked up): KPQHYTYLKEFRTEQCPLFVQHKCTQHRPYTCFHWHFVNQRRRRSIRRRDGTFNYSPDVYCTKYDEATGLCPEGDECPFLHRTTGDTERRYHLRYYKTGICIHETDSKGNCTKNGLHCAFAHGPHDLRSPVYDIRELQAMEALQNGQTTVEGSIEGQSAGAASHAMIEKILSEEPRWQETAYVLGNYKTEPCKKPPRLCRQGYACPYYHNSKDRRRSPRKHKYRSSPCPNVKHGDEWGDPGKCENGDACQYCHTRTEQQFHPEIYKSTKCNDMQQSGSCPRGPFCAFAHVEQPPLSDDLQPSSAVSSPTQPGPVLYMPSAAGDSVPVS
Method: RNA Bind-n-Seq
Molecule type: RNA
Medium: in vitro
Concentration: not given
Notes: RNA with constant flanks, ends assumed
Relative to: input RNA pool
Reading: higher = stronger binding
Quantity: bound/input enrichment
Constant ends, left off below: GGGAGUUCUACAGUCCGACGAUC … CAACAGAGGAUUGAGCAUCA
AAGACUGAAUUAAGUGAAAUUGUACUUUAUUUUACAUAUAUAAUGUCAUGUACAACUUGGCUCCGACCGUGUUUUUGGGGGGGAUUUUUGUUUUGGUGUUUAUUUUUACACAAGGAAAGU: 0.555 ratio
AAGGUCUUUAAUGUUGCCAUCCCCCGAUUCCACAUGGCAUGUCCAACAUUCAGGGUGUCUACCGCUCGAUUGGAAAUGGGUCCUGAUGAAUAUGAAGAGAUGGAGGAGGAAGCUGAGGAG: 0.14 ratio
AAUCUAAAACUUGCAACGGAACUCCCAGAUGCUGAACUUAGAAGGACUUUAUGGUCUUCCGCCGCUUUUCCCAAGCUCAAACGGCAAGUUUUGUUGUAUGACCCUCAAGUCAACUCACCC: 0.19 ratio
UAAUAUUUUUGUGAACUGGUGUAAAUUGUUAAUGCAUAUAAGCUUGUGUAUUUUUGUAAACCGUUUUGUGAUUUACUUCUUGCCCCCUGUGUAAAUAUUUACAGUCUCAUUUCUUCCAAA: 0.305 ratio
ACAUCAUGUAUGUAUGUGCAAAUGUUGUCUUUUUGAGGGAAUUUAGUAUUUAAAUUGCUUCACCGUCUAAGUUAUUAAAUUUUGUAUGAAAUAACUCUUGAAAACAUUCACUUUUCAGUA: 0.427 ratio
GCACCCCCUGGUCGCCCUGAGGCGCAGCCUCCUCCUCUCAGCUCUGAGCAUAAAGAGCCGGCCGCCGGGGACGCAGUGCCCGGGCCAAAGGAUGGCAGCGCCCCAGAGGUCCGAGGCGCU: 0.101 ratio
GGAAUUUACAUGGUCUAUUGCCGAAAACACAAGAAAACUGCACAUAACUCCGAAGCUGAUUCCGAAGAAAGUUUUAAUGAACAUGAACUGGAGCCCUCAUCACCUAAAAGUAAAAAGAAA: 0.234 ratio
UCCAGCCGGUGUGAAGAGGAGACCCCUUCCCUCUUGUGGGGUUUGGAUCCUGUGUUUCCCGCCUUUGCAAAACUCUACAUCAGGGAUAUCCUGGACAUGAAGGAGUCCCGCCAGGUGCCA: 0.0804 ratio
UUCGGUGCCAUUGGCUUCUUCUGGGUUGAGUAAAUUGUCAGAUACUGCUCAUCAUUUGCAACCGUUUUCCCUGAGUGAGGCUGAAGCCUCAGGUUCCUUCAAAACACGCUAUCUAGAGAG: 0.224 ratio
AAGAUUGAUGACAUUCGUAAGCCUGGAGAAUCUGAAGAAUGAAGACAUUGAGAAAACUAUGCCGCAAGAUCCACUUCUGUGAUUAAGUAAAUGGAUGUCUCGUGAUGCAUCUACAGUUAU: 0.223 ratio
UCAACCAAAGAUGUACAUAAAGGAGAGUCUGGAAGCCAGGAAGCGGCAGUAAACAGUUUCCGCUCUUCCGUUGGUCACCCUGUGACCUCGACUGUUAUUUCACAGCCUAAAAGCUUUGAC: 0.111 ratio

Sample 4
Target: CCNB1, cyclin fold, Cln2 fusion (human)
Method: yeast growth competition, sequencing
Medium: yeast
Notes: weak parent motif
Relative to: not given
Reading: higher = stronger binding
Quantity: normalised enrichment score
Starting sequence: GMNC docking peptide (human); KNAKRNLSSEFAN
KSAKRNLSSEFAN [N2S]: 0.0988
KIAKRNLSSEFAN [N2I]: 0.297
KFAKRNLSSEFAN [N2F]: 0.219
KNAKRNLSEEFAN [S9E]: -0.302
KNAKRNLSSKFAN [E10K]: 0.0641
KNAKRNLSSLFAN [E10L]: -0.666
KNAKRNKSSEFAN [L7K]: 0.439
KNAKRNLSQEFAN [S9Q]: 0.0318
KNAKRNLSSFFAN [E10F]: 0.0853
KNAKRNLQSEFAN [S8Q]: 0.459
KNAERNLSSEFAN [K4E]: -0.2
KNAKRNFSSEFAN [L7F]: 0.427
KNAKRNLSGEFAN [S9G]: 0.304
KNAKRNLASEFAN [S8A]: -0.067
KNAKRNLSSVFAN [E10V]: 0.185
KNAKQNLSSEFAN [R5Q]: 0.22

Sample 5
Target: CREBRF, bZIP domain (human)
Method: DHFR protein complementation
Medium: yeast
Notes: single substitutions, most at no-binding floor
Relative to: wild-type JUN-FOS pair
Reading: higher = stronger binding
Quantity: binding fitness
Starting sequence: JUN, bZIP domain (human); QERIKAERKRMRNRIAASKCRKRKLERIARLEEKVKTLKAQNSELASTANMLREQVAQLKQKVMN; partner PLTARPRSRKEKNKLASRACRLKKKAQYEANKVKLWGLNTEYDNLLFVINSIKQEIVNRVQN
L52Y: -1.53 natural log
T48I: -1.45 natural log
K39C: -1.5 natural log
E44I: -1.23 natural log
K34N: -1.41 natural log
A49H: -1.52 natural log
V35N: -1.46 natural log
A57V: -1.67 natural log
K34V: -1.58 natural log
L38D: -1.5 natural log
E32I: -1.16 natural log
A49S: -1.49 natural log
A40F: -1.49 natural log
K39D: -1.59 natural log
A49K: -1.3 natural log
L38V: -1.41 natural log
T37D: -1.32 natural log
A29E: -1.49 natural log
Q58S: -1.6 natural log
E32R: -1.35 natural log
S43K: -1.48 natural log
N42F: -1.49 natural log
K39Q: -1.28 natural log
L45P: -1.48 natural log
E32C: -1.42 natural log

Repeated from above (sample 3):
AAGACUGAAUUAAGUGAAAUUGUACUUUAUUUUACAUAUAUAAUGUCAUGUACAACUUGGCUCCGACCGUGUUUUUGGGGGGGAUUUUUGUUUUGGUGUUUAUUUUUACACAAGGAAAGU: 0.555 ratio
AAGGUCUUUAAUGUUGCCAUCCCCCGAUUCCACAUGGCAUGUCCAACAUUCAGGGUGUCUACCGCUCGAUUGGAAAUGGGUCCUGAUGAAUAUGAAGAGAUGGAGGAGGAAGCUGAGGAG: 0.14 ratio
AAUCUAAAACUUGCAACGGAACUCCCAGAUGCUGAACUUAGAAGGACUUUAUGGUCUUCCGCCGCUUUUCCCAAGCUCAAACGGCAAGUUUUGUUGUAUGACCCUCAAGUCAACUCACCC: 0.19 ratio
UAAUAUUUUUGUGAACUGGUGUAAAUUGUUAAUGCAUAUAAGCUUGUGUAUUUUUGUAAACCGUUUUGUGAUUUACUUCUUGCCCCCUGUGUAAAUAUUUACAGUCUCAUUUCUUCCAAA: 0.305 ratio
ACAUCAUGUAUGUAUGUGCAAAUGUUGUCUUUUUGAGGGAAUUUAGUAUUUAAAUUGCUUCACCGUCUAAGUUAUUAAAUUUUGUAUGAAAUAACUCUUGAAAACAUUCACUUUUCAGUA: 0.427 ratio
GCACCCCCUGGUCGCCCUGAGGCGCAGCCUCCUCCUCUCAGCUCUGAGCAUAAAGAGCCGGCCGCCGGGGACGCAGUGCCCGGGCCAAAGGAUGGCAGCGCCCCAGAGGUCCGAGGCGCU: 0.101 ratio
GGAAUUUACAUGGUCUAUUGCCGAAAACACAAGAAAACUGCACAUAACUCCGAAGCUGAUUCCGAAGAAAGUUUUAAUGAACAUGAACUGGAGCCCUCAUCACCUAAAAGUAAAAAGAAA: 0.234 ratio
UCCAGCCGGUGUGAAGAGGAGACCCCUUCCCUCUUGUGGGGUUUGGAUCCUGUGUUUCCCGCCUUUGCAAAACUCUACAUCAGGGAUAUCCUGGACAUGAAGGAGUCCCGCCAGGUGCCA: 0.0804 ratio
UUCGGUGCCAUUGGCUUCUUCUGGGUUGAGUAAAUUGUCAGAUACUGCUCAUCAUUUGCAACCGUUUUCCCUGAGUGAGGCUGAAGCCUCAGGUUCCUUCAAAACACGCUAUCUAGAGAG: 0.224 ratio
AAGAUUGAUGACAUUCGUAAGCCUGGAGAAUCUGAAGAAUGAAGACAUUGAGAAAACUAUGCCGCAAGAUCCACUUCUGUGAUUAAGUAAAUGGAUGUCUCGUGAUGCAUCUACAGUUAU: 0.223 ratio
UCAACCAAAGAUGUACAUAAAGGAGAGUCUGGAAGCCAGGAAGCGGCAGUAAACAGUUUCCGCUCUUCCGUUGGUCACCCUGUGACCUCGACUGUUAUUUCACAGCCUAAAAGCUUUGAC: 0.111 ratio
